Measured values pooled from the literature.
Protocols differ between the studies behind these lines. Numbers after ± are the reported error.
Cell line: DU-145

Compound	observed	technique	time	IC50 [µM]
O=C(C[P+]([Au-][Cl])(c1ccccc1)c1ccccc1)[O][Ti+2][O]C(=O)C[P+]([Au-][Cl])(c1ccccc1)c1ccccc1.c1cc[cH-]c1.c1cc[cH-]c1	cell viability	XTT	24 h	38.6
CC[C@H](C)[C@@H]([C@@H](CC(=O)N1CCC[C@H]1[C@H](OC)[C@@H](C)C(=O)N[C@H](C)[C@@H](O)c1ccccc1)OC)N(C)C(=O)[C@@H](NC(=O)[C@@H](NC)C(C)C)C(C)C	cell growth or viability	MTT	72 h	0.00108
CC(=O)NCCCCCCCC(=O)N[C@@H](CC(C)C)C(=O)N[C@@H](CC(C)C)C(=O)N[C@@H](CC(C)C)C(=O)N[C@@H](CC(C)C)C(=O)N[C@@H](CCCNC(=N)N)C(=O)N[C@H](C(=O)N[C@@H](CCCCN)C(=O)N[C@@H](CCCNC(=N)N)C(N)=O)C(C)C	cell growth or viability	MTT	72 h	80 to 100
C#CCCCC[C@H](C)C[C@@H](C)C(=O)N[C@@H](C)C(=O)N1CCC[C@H]1C(=O)N[C@H](C(=O)N[C@H](C(=O)N[C@H](C(=O)N[C@@H](Cc1ccccc1)C(=O)N1CCC[C@H]1C(=O)N1CCC[C@H]1C(C)=O)C(C)C)C(C)C)C(C)C	cell growth or viability	SRB	–	1
C/C1=C\CC[C@@]2(C)O[C@H]2[C@H]2OC(=O)C(C)[C@@H]2CC1 (some centres unmarked)	cell growth or viability	resazurin	–	> 500
O=C(N=P12CN3CN(CN(C3)C1)C2)c1ccccn1.[Cl][Pt][Cl]	cell growth or viability	MTT	24 h	65.3
CC1(CCCOC2C(O)C(O)OC(CO)C2O)C(=O)[O][Pt][O]C1=O.NC1CCCCC1N (mixture of isomers)	cytotoxicity	MTT	7.5 h plus 64 h recovery	26 ± 4
C1=CCCC=CCC1.C1=CCCC=CCC1.[Cl][Hg-]([Cl])[Cl].[Cl][Hg-]([Cl])[Cl].[Pt+][c]1ccccc1P(=Nc1ccccc1)(c1ccccc1)c1ccccc1.[Pt+][c]1ccccc1P(=Nc1ccccc1)(c1ccccc1)c1ccccc1	cell growth or viability	MTT	24 h	0.93
CC1(CCCOC2C(CO)OC(O)C(O)C2O)C(=O)[O][Pt][O]C1=O.NC1CCCCC1N (mixture of isomers)	cell growth or viability	MTT	–	2.4
O=C(N=P12CN3CN(CN(C3)C1)C2)c1cccc[c]1[Pd][Br].c1cncc(P(c2cccnc2)c2cccnc2)c1	cell growth or viability	MTT	24 h	299
CC1(CCCO[C@H]2O[C@H](CO)[C@@H](O)[C@H](O)[C@H]2O)C(=O)[O][Pt][O]C1=O.N[C@@H]1CCCC[C@H]1N	cell growth or viability	MTT	–	3.7
C#CCCCC[C@H](C)C[C@@H](C)C(=O)N(C)[C@H](C(=O)N(C)[C@@H](Cc1ccccc1)C(=O)N1CCC[C@H]1C(=O)N1CCC[C@H]1C(C)=O)C(C)C	cell growth or viability	SRB	–	1
CC1(CCCOC2C(O)OC(CO)C(O)C2O)C(=O)[O][Pt][O]C1=O.NC1CCCCC1N (mixture of isomers)	cell growth or viability	MTT	–	2.8
CC(=O)[C@@H]1CCCN1C(=O)[C@@H]1CCCN1C(=O)[C@H](Cc1ccccc1)NC(=O)[C@@H](NC(=O)[C@@H](NC(=O)[C@@H](NC(=O)[C@@H]1CCCN1C(=O)[C@H](C)NC(=O)OC(C)(C)C)C(C)C)C(C)C)C(C)C	cell growth or viability	SRB	–	1

A few entries again:
Compound	observed	technique	time	IC50 [µM]
O=C(N=P12CN3CN(CN(C3)C1)C2)c1ccccn1.[Cl][Pt][Cl]	cell growth or viability	MTT	24 h	65.3
